Measured values of several laboratories.
Each numbered part is a random draw from the data of one study; scales do not carry over between parts. Changes are numbered by the printed parent chain.

Series 1
Target: CCND3, cyclin fold, Cln2 fusion (human)
Technique: yeast growth competition, sequencing
Medium: yeast
Notes: weak parent motif
Baseline: not given
Direction: higher = stronger binding
Starting sequence: ORC1 docking peptide (human); PRARKRLELGNLG
Substitution	normalised enrichment score
PRAMKRLELGNLG [R4M]	0.144
PRARKRLEEGNLG [L9E]	0.0941
PRARKRLELGFLG [N11F]	0.168
PRARKTLELGNLG [R6T]	0.0999
PRARRRLEFGNLG [K5R L9F]	0.236
PRARKRLELLNLG [G10L]	0.164
PRCRKRLELGNLG [A3C]	0.167

Series 2
Target: RING finger protein unkempt homolog, zinc fingers 1-6, GST-SBP tag (UNK, Homo sapiens, UniProt Q9C0B0, residues 30-357)
Technique: RNA Bind-n-Seq
Form: RNA
Medium: in vitro
Concentration: not given
Notes: RNA with constant flanks, ends assumed
Baseline: input RNA pool
Direction: higher = stronger binding
Target sequence (chain): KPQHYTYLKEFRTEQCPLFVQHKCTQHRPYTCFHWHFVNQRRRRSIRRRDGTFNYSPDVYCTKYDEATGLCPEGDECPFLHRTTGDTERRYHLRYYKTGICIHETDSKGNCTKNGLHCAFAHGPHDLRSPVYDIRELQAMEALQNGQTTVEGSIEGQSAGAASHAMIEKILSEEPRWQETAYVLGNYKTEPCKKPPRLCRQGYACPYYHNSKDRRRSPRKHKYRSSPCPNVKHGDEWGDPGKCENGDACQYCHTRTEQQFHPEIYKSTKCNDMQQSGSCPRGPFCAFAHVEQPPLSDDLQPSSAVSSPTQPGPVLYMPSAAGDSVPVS
Strand	bound/input enrichment [ratio]
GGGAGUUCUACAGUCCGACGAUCGCUGUCAGGCCUCAUCCACUGUGAAUCCCCCAGGUUCUUAAAACUUUAAAAUUUUUGAAUUUCCGAUAAUUAUGGAAUUAAUGCAAUGUCACACACUACUGUUAACUCUGUGGCCAAUUACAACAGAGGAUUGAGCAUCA	1.19
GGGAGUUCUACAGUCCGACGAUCGCAUAUUAUAUCAGACUGCUUUGAGAAAUCUCAUCCCUAGUCUAUUGCAGUUGUUUCUAUCCGCUUACUGAUUAACUCAGUCCUGACACACCUUUUGGGAAAUGCUGAUUUAAACUUCUUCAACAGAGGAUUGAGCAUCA	0.889
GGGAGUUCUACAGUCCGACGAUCGCUACCUCUGUUGCUGCCCGAGGUCUAGAUGUGAAACAUCUGAUUCUUGUAGUAAAUUACCGCUGCCCCAACCAUUAUGAGGAUUAUGUACACAGAGCAGGGCGGACUGGAAGAGCAGGACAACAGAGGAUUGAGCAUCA	0.558
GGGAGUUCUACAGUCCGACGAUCCUCAAAGAGCUGCUCUCUUGGAAGGUUCUGAGCACGGAAGACUAUACAACAUGCUUUUCCCGCAAAAAUUUUGUCCAUGAAGCAGUGGACUAUGUUAUCGGUCACUUGAUCCAAGAGAAGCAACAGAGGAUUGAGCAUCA	0.0984
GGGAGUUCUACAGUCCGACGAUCGAGGCUUGCAAAGACAUCCUGCUGUUUAAGAAUCUGGAUCCGGAGCAGAUGUCUCAAGUAUCCGAUGCCAUGUUUGAAAAAUUGGUCAAAGAUGGGGAGCAUGUAAUUGAUCAAGGUGACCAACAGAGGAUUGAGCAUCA	0.294
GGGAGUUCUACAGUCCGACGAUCGUGGCCUUUCAGUUCACGGUCACUCCGGACGGGAUUGACCUGCGGCUGAGCCAUGAAGCUCUCCGACAAAUCUAUCUCUCUGGACUUCAUUCCUGGAAAAAGAAGUUCAUCAGAUUCAAGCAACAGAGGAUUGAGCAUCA	0.0775
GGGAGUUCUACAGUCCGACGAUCAGUGCUGCAGCAGCUCCCAGUCCAGUGCUAGGAAACAUUCCCCCAGGAGAUGGCAUGCCAGCCGGUCCUGUACCACCAGGGUUCUUUCAGGCACUUGGAGGUGUCCCAGGAAGUCAGCCACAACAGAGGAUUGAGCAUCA	0.0935
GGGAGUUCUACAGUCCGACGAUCUGUAUGCUUUUCCUUGUGUAAAAUCAUUGUUCUUUUUGACAAGUGGUUUGUUUCAUUUAUUACCGCUUUGAAAUAAAAAAUCGUGAGGGAAAAAAAAUCCAAUGAUUGUACUGUGGUUAGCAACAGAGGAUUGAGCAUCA	0.141

Series 3
Target: Histone acetyltransferase KAT6A, winged helix 1, GST fusion (KAT6A, Homo sapiens, UniProt Q92794, residues 1-85)
Technique: protein binding microarray
Form: double-stranded DNA, one strand shown
Medium: in vitro
Concentration: not given
Notes: 8-mer, flanks averaged, mean of 2 arrays, mostly near background
Baseline: not given
Direction: higher = stronger binding
Construct (chain): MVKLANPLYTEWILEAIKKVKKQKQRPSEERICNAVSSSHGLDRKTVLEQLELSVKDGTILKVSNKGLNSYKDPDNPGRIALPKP
Strand	E-score
CCCTGCAC	-0.147
CGGGCCAC	0.242
AGAAAGCT	-0.0793
AATGCTTC	-0.0255
ACTCCGAT	0.0444
AAGCTACC	0.0165
GTAAGCAC	-0.103
ACTAGTGA	-0.199

Other studies, line by line
Substance	target	test	test system	conditions	scale	endpoint	result
PhoQ, residues 284 288 289 292 302 303 SLANIV	PhoP, residues 12 14 15 18 19 AQCLL (Escherichia coli, UniProt P23836)	Sort-seq, item: YFP reporter	E. coli	PhoQ-PhoP variant library, together with: 10 µM Mg2+	baseline: high Mg2+ state, higher = stronger signaling	fold induction	4.15

Some of these lines once more (series 3):
Strand	E-score
AAGCTACC	0.0165
GTAAGCAC	-0.103
ACTAGTGA	-0.199
